Measured values of several laboratories.
Protocols differ between the studies behind these lines. ± gives the spread as reported.

Compound = [Ru+2].c1ccc(-c2cccc(-c3ccccn3)n2)nc1.c1ccc2nc(-c3ccc4ccccc4n3)ccc2c1.c1ccncc1; test system = water; setting = 24 h, 37 °C; remaining compound = 82%
Compound = Fc1ccc(Nc2c(Cl)cccc2Cl)c(Cc2nnn[nH]2)c1; test system = human liver microsomes; setting = 30 min, added: NADPH; remaining compound = 74 ± 6.4%
Compound = CN(C)C(CNC(=O)Nc1cc(C(F)(F)F)ccc1N1CCOCC1)c1ccncc1 (centres unmarked); test system = human plasma; setting = 6 h; remaining compound = 88.6%
Compound = Fc1cc(Cl)c(Nc2ccccc2Cc2nnn[nH]2)c(Cl)c1; test system = human liver microsomes; setting = 30 min, added: NADPH; remaining compound = 90 ± 8.3%
Compound = CC(C)(CN)S[Se]Cc1ccc(-c2cccc(C(O)c3ccc(Cl)c(Cl)c3)c2)cc1 (centres unmarked); test system = rat plasma; setting = 1 h; remaining compound = 73%
Compound = [Ru+2].c1ccc(-c2cccc(-c3ccccn3)n2)nc1.c1ccc2nc(-c3nc4ccccc4s3)ccc2c1.c1cnccn1; test system = water; setting = 24 h, 37 °C; remaining compound = 84%
Compound = CCCCCCCCCCCCCCCC(=O)OC[C@H]1O[C@@H](n2cc(F)c(N)nc2=O)CS1; test system = human plasma; setting = 1 µM, 90 min, 37 °C; how to read = relative to: 0 min; remaining compound = 20%
Compound = Cc1cccn2nc(-c3ccc(F)cc3)c(-c3ccncc3)c12; test system = mouse liver microsomes; setting = 1 µM, 0.5 h; remaining compound = < 1%
Compound = C=C(NC(=O)OCc1ccccc1)C(=O)N1CCC[C@H]1C(=O)NC(C)(C)C(=O)N[C@@H](C)C(=O)OC; test = 1H NMR; test system = DMSO-d6; setting = 40 min, room temperature, added: cysteamine 2 equiv; remaining compound = 93%
Compound = CC12CC3CC(C1)CC(NC(=O)NC1CCC(Oc4ccc(C(=O)O)cc4)CC1)(C3)C2 (centres unmarked); test system = human liver microsomes; setting = 1 µM, 30 min, 37 °C, 1 mg/mL microsomes, added: without NADPH; remaining compound = 95 ± 3%
Compound = CSCC(NC(=O)c1cc(Cl)ccc1Cl)C(=O)NC(CC(C)C)B(O)O (centres unmarked); test system = mouse liver microsomes; setting = 3 µM, 60 min, pH 7.4, added: NADPH; remaining compound = 61 ± 0.29%
Compound = CC(C)Cn1c(SCC(=O)N2CCc3ccccc3C2)nc2cc(Cl)ccc2c1=O; test system = rat plasma; setting = 1 h; remaining compound = 71.5%
Compound = NS(=O)(=O)Cc1ccccc1Nc1c(Cl)cccc1Cl; test = glucuronidation; test system = human liver microsomes; setting = 30 min, added: UDPGA; remaining compound = 108 ± 1.9%
Compound = O=C(Cc1ccc(-c2ccc(OCCN3CCOCC3)cc2)cn1)NCc1ccc(F)cc1; test system = human liver microsomes; setting = 30 min, added: NADPH; remaining compound = 21.8 ± 1.4%
Compound = CC12CC3CC(C)(C1)CC(NC(=O)NC1CCC(Oc4ccc(C(=O)O)cc4)CC1)(C3)C2 (centres unmarked); test system = human liver microsomes; setting = 1 µM, 30 min, 37 °C, 1 mg/mL microsomes, added: without NADPH; remaining compound = 100 ± 3%
Compound = Cc1cc(N)nc(C[C@@H]2CNC[C@@H]2OCCCCCc2cccc(N)n2)c1; test = in vitro metabolic stability; setting = 60 min, added: NADPH; remaining compound = 85%
Compound = Oc1ccccc1-n1nc(-c2ccccc2)n[n+]1-c1ccccc1.[Br-]; test = HPLC; test system = fetal bovine serum; setting = 24 h; remaining compound = 100%
Compound = CC[N+]1=C(C=CC=CC=C2N(CCCCCC(=O)O)c3ccc4c(S(=O)(=O)[O-])cc(S(=O)(=O)[O-])cc4c3C2(C)C)C(C)(C)c2c1ccc1c(S(=O)(=O)[O-])cc(S(=O)(=O)[O-])cc21.[K+].[K+].[K+]; test system = 100% serum; setting = 24 h, pH 7.4, 37 °C; remaining compound = 99%
Compound = CCCC(CCC)NC(=O)c1ccc(O)c(OC)c1; test system = rat liver microsomes; setting = 1.0 µM, 20 min; remaining compound = 80.8%
Compound = O=C(NCCCCc1ccccc1)n1c(=O)oc2cc(-c3ccc(F)cc3)ccc21; test system = mouse liver microsomes; setting = 5 µM, 1 h, pH 7.4; remaining compound = 89%
Compound = C[C@H](CCC(=O)NCCC(c1ccccc1)c1ccccc1)[C@H]1CC[C@H]2[C@@H]3CC[C@@H]4CC(=O)CC[C@]4(C)[C@H]3CC[C@]12C; test system = human plasma; setting = 2 h; remaining compound = 97.4%
Compound = COc1ccc2c(c1)c(CC(=O)Nc1nnc(CCCCc3ccc(NC(=O)Cc4cccc(OC(F)(F)F)c4)nn3)[se]1)cn2C; test system = mouse liver microsomes; setting = 50 µM, 4 h, pH 7.4, 37 °C; remaining compound = 34.4 ± 9.5%
Compound = Oc1ccccc1-c1nn(-c2ccccn2)[n+](-c2ccccc2)n1.[Br-]; test = HPLC; test system = fetal bovine serum; setting = 24 h; remaining compound = 100%
Compound = COC(=O)c1ccc2c(c1)NC(=O)/C2=C(\Nc1ccc2c(c1)CCN2C(=O)CN1CCOCC1)c1ccccc1; test system = cynomolgus monkey plasma; setting = 1 µM, 4 h, 37 °C; remaining compound = 104%
Compound = CCCC[P+](CCCC)(CCCC)CCCC.Cc1ccc(S(=O)(=O)[N-]C(=O)NN2CC3CCCC3C2)cc1 (centres unmarked); test = solution stability; test system = PBS buffer; setting = 24 h, pH 7.4, 37 °C; remaining compound = 62.7%
Compound = CCCCCCCCC=CCCCCCCCC(=O)OC(COC(=O)Cc1c(C)n(C(=O)c2ccc(Cl)cc2)c2ccc(OC)cc12)COP(=O)([O-])OCC[N+](C)(C)C (centres unmarked); test system = Clark-Lubs buffer; setting = 4 mg/mL, 24 h, pH 1.2, 37 °C; remaining compound = 13.7 ± 2.32%
Compound = Cc1ccc(N2C(=O)c3ccccc3NC23C(=O)N(C)c2ccc(Br)cc23)cc1 (centres unmarked); test system = human plasma; setting = 18 h; remaining compound = 106 ± 11%
Compound = CC1=C(C2=C(C)C(=O)c3c(cc(O)c(O)c3Cc3ccccc3)C2=O)C(=O)c2cc(O)c(O)c(Cc3ccccc3)c2C1=O (racemic); test system = rat plasma; setting = 100 µM, 1 h, 37.5 °C; remaining compound = 99 ± 0.5%
Compound = COc1cc(CNC(=O)CCCC/C=C/C(C)C)ccc1N; test system = C57BL/6 mouse plasma; setting = 2 µM, 120 min; remaining compound = 97%
Compound = C=C1C[C@@]23CC[C@H]4[C@@](C)(CCC[C@@]4(C)C(=O)O[C@@H]4O[C@H](CO)[C@@H](O)[C@H](O)[C@H]4O)[C@@H]2CC[C@]1(O[C@@H]1O[C@H](CO[C@H]2O[C@H](CO)[C@@H](O)[C@H](O)[C@H]2O)[C@@H](O)[C@H](O)[C@H]1O[C@@H]1O[C@H](CO)[C@@H](O)[C@H](O)[C@H]1O)C3; test = HPLC; test system = Britton-Robinson buffer; setting = 0.05 % w/v, time not given, pH 10; how to read = relative to: initial; remaining compound = 85.2 ± 1.04%
Compound = CCc1c2c(nc3ccc(O)cc13)-c1cc3c(c(=O)n1C2)COC(=O)[C@@]3(CC)OC(=O)[C@H](N)C(C)C; test system = MCF7 cell lysate; setting = 5 µM, 120 min, 37 °C; remaining compound = 40%
Compound = O=C(O)Cc1cc(F)ccc1Nc1c(Cl)cccc1Cl; test = glucuronidation; test system = human liver microsomes; setting = 30 min, added: UDPGA; remaining compound = 58 ± 3.3%
Compound = COc1cc(NC(C)=O)c2c(c1O)-c1c(OC)c(OC)cc3c1C(C2)N(C)CC3 (centres unmarked); test system = rat lung homogenate; setting = 5 µg/mL, 40 d, -20 °C, long-term storage; remaining compound = 90.9 ± 1.4%
Compound = CCCCCCCCCCCCCCCC(=O)N[C@@H](CCCCN)C(=O)N[C@H](C(=O)N[C@H](C(=O)N[C@@H](CCCCN)C(=O)N[C@@H](CO)C(=O)O)[C@@H](C)O)[C@@H](C)O; test = LC-MS/MS; test system = mouse dermal skin extract; setting = 40 µg/mL, 120 min, pH 7.4, 37 °C; remaining compound = 9.7%
Compound = CCC1CC2C(C)=CC3C(=O)CCCC3C=CC(C)=CC2C(=O)O1 (centres unmarked); test system = human plasma; setting = 10 µM, 2 h, 37 °C; remaining compound = 102%
Compound = CC(=O)OC1C(=O)C2(C)C(O)CC3OCC3(OC(C)=O)C2C(OC(=O)c2ccccc2)C2(O)CC(OC(=O)C(OC(=O)OC3C=CCCC(C)(C(=O)NCC(=O)O)CC3)C(NC(=O)c3ccccc3)c3ccccc3)C(C)=C1C2(C)C (centres unmarked); test system = mouse plasma; setting = 1 µM, time not given, 37 °C; remaining compound = 96.5%
Compound = N=C(N)NCCC[C@H](NC(=O)[C@@H]1CCCN1C(=O)[C@H](Cc1ccccc1)NC(=O)[C@@H]1CCCN1C(=O)[C@H](Cc1c[nH]cn1)NC(=O)[C@@H](N)Cc1ccccc1)C(=O)O; test = LC-MS/MS; test system = Sprague Dawley rat plasma; setting = 500 ng/mL, 10 min, room temperature; remaining compound = 35 ± 9.18%
Compound = CO[C@@H](C(N)=O)[C@H](NC(=O)c1ccc(NC(=O)c2ccc([N+](=O)[O-])cc2)cc1)C(=O)Nc1ccc(C(=O)Nc2ccc(C(=O)Nc3ccc(C(=O)O)cc3)c(O)c2OC(C)C)cc1; test system = human plasma; setting = 4 h; remaining compound = 78%

A few entries again:
Compound = CC(=O)OC1C(=O)C2(C)C(O)CC3OCC3(OC(C)=O)C2C(OC(=O)c2ccccc2)C2(O)CC(OC(=O)C(OC(=O)OC3C=CCCC(C)(C(=O)NCC(=O)O)CC3)C(NC(=O)c3ccccc3)c3ccccc3)C(C)=C1C2(C)C (centres unmarked); test system = mouse plasma; setting = 1 µM, time not given, 37 °C; remaining compound = 96.5%
Compound = CN(C)C(CNC(=O)Nc1cc(C(F)(F)F)ccc1N1CCOCC1)c1ccncc1 (centres unmarked); test system = human plasma; setting = 6 h; remaining compound = 88.6%
Compound = CO[C@@H](C(N)=O)[C@H](NC(=O)c1ccc(NC(=O)c2ccc([N+](=O)[O-])cc2)cc1)C(=O)Nc1ccc(C(=O)Nc2ccc(C(=O)Nc3ccc(C(=O)O)cc3)c(O)c2OC(C)C)cc1; test system = human plasma; setting = 4 h; remaining compound = 78%
